Assay results of several laboratories.
A part holds a random share of what one study measured.

Block 1 — method: protein-binding microarray; molecule type: double-stranded DNA, one strand shown; medium: in vitro; tested at: not given; reading: higher = stronger binding
Target: Protein max, full length (MAX, Homo sapiens, UniProt P61244-2, residues 1-151)
Notes: k-mer, scored over probes, only values ≥0.25
For `CGACGTGC`, the E-score was 0.261.
`GCACGGGA` gave an E-score of 0.335.
With `ACATGCAC` the E-score was 0.391.
`CGTGCATA` has an E-score of 0.351.
With `ATGTGGAG` the E-score was 0.277.

Block 2 — method: protein-binding microarray; molecule type: double-stranded DNA, one strand shown; medium: in vitro; tested at: 2200 nM top; notes: 60-bp whole probe; together with: salmon DNA 0.4 mg/ml; baseline: random background probes; reading: higher = stronger binding; shared flanks, not repeated: GCCTAGCAC … GTCTTGATTCGCTTGACGCTGCTG
Target: Interferon regulatory factor 7, full length, phosphomimetic (IRF7, Homo sapiens, UniProt Q92985, residues 1-503, S471D/S472D/S475D/S476D/S477D/S483D/S484D/S487D)
Construct (chain): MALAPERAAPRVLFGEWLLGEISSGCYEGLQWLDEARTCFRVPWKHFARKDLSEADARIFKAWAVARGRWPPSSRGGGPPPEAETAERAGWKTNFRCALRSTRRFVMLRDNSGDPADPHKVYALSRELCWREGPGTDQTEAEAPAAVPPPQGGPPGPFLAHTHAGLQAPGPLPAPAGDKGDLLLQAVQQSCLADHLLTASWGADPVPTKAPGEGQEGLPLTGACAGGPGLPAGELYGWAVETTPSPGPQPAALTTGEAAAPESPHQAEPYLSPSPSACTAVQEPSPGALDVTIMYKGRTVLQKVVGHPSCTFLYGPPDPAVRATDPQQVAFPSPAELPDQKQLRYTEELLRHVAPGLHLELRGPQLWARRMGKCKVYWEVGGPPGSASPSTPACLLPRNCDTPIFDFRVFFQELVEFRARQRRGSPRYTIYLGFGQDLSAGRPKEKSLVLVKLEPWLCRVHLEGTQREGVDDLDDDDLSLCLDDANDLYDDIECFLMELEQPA
`GACGGACTGGGGTTCCGGGACGTGCTA`: “fitted relative affinity” -0.916 z-score.
For `TTGAACTTCGGCCTCTAGGTGTGCTAG`, “fitted relative affinity” read 0.0619 z-score.
Under “fitted relative affinity”, `TTAGGACTGGATTTCGGTTAGTGCTAG` is recorded as 2.21 z-score.
`TTAGAACTGGTGTTTCGATTAGTGCTA` — result for “fitted relative affinity”: 2.08 z-score.
`TACGGTTTCGACACTGGGGACGTGCTA`: “fitted relative affinity” 3.13 z-score.
`TCAATTTTCATTAACTGACTGTGCTAG` — result for “fitted relative affinity”: 1.07 z-score.
Under “fitted relative affinity”, `TTAGGTATTGGGACTGGGTTAGTGCTA` is recorded as -0.363 z-score.

Block 3 — method: protein binding microarray; molecule type: double-stranded DNA, one strand shown; medium: in vitro; tested at: not given; baseline: not given; reading: higher = stronger binding
Target: Histone acetyltransferase KAT6A, both winged helices, GST fusion (KAT6A, Homo sapiens, UniProt Q92794, residues 1-181)
Notes: 8-mer, flanks averaged, mean of 2 arrays, mostly near background
Construct (chain): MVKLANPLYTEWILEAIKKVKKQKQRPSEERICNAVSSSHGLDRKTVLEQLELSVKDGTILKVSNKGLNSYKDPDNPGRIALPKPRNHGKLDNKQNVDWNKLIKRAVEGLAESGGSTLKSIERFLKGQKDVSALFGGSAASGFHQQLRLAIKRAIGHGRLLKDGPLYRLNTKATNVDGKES
The E-score of `ATGTCTCC` is reported as 0.0229.
For `CATAGCGA`, the E-score was 0.0179.
The E-score of `TAAAGGGA` is reported as -0.0587.
The E-score of `AGGGTTCA` is reported as -0.0684.
`GAACAACA` has an E-score of -0.0688.
With `AAATTGGA` the E-score was -0.206.
`AAGCAGAG` gave an E-score of -0.242.
`AGCTCTCA` has an E-score of -0.242.
`CAACACCG` gave an E-score of 0.165.
For `CGGTGACA`, the E-score was -0.0102.
For `ACACTTAC`, the E-score was 0.0901.

Mixed results
The fold induction of `PhoQ, residues 284 288 289 292 302 303 NSMLDC` is reported as 2.3 (PhoP, residues 12 14 15 18 19 LHATL (Escherichia coli, UniProt P23836); Sort-seq, refers to: YFP reporter; E. coli; PhoQ-PhoP variant library, together with: 10 µM Mg2+; baseline: high Mg2+ state, higher = stronger signaling).

Excerpt of the above (block 1):
For `CGACGTGC`, the E-score was 0.261.
`GCACGGGA` gave an E-score of 0.335.
With `ACATGCAC` the E-score was 0.391.
`CGTGCATA` has an E-score of 0.351.
